Assay results pooled from the literature.
Compare with care: the assays were run in different laboratories. ± marks the error that the study gave.
Route: intravenous

`N=C(N)NCCC[C@@H]1NC(=O)[C@H](CCCCNC(=O)CCOCCOCCOCCOCCNC(=O)CN2CCN(CC(=O)O)CCN(CC(=O)O)CCN(CC(=O)O)CC2)NC(=O)[C@@H](Cc2ccccc2)NC(=O)[C@H](CC(=O)O)NC(=O)CNC1=O` [indium-111 labelled] has a tissue uptake of 0.1 ± 0.01 %ID/g (female athymic nude mice, eyes; 3 µCi, 72 h, U-87 MG glioma xenograft).
`CCCC[C@H](NC(=O)[C@H](Cc1cccs1)NC(=O)[C@H](Cc1c[nH]cn1)NC(=O)CCNC(=O)[C@@H](NC(=O)[C@H](C)NC(=O)[C@H](Cc1c[nH]c2ccccc12)NC(=O)[C@H](CCC(N)=O)NC(=O)[C@H](Cc1cccs1)NC(=O)CN1CCC(NC(=O)CN(CCN(CCN(CC(=O)O)CC(=O)O)CC(=O)O)CC(=O)O)CC1)C(C)C)C(N)=O` [indium-111 labelled] has a tissue uptake of 0.4 ± 0.1 %ID/g (Swiss nu/nu mouse, male, PC-3 tumour xenograft, tumour; 10 pmol, 24 h).
For `N=C(N)NCCC[C@@H]1NC(=O)[C@H](CCCCNC(=O)CC[C@H](NC(=O)CCOCCOCCOCCOCCNC(=O)CN2CCN(CC(=O)O)CCN(CC(=O)O)CCN(CC(=O)O)CC2)C(=O)NCCCC[C@@H]2NC(=O)[C@@H](Cc3ccccc3)NC(=O)[C@H](CC(=O)O)NC(=O)CNC(=O)[C@H](CCCNC(=N)N)NC2=O)NC(=O)[C@@H](Cc2ccccc2)NC(=O)[C@H](CC(=O)O)NC(=O)CNC1=O` [indium-111 labelled], the tissue uptake was 1.3 ± 0.52 %ID/g (female athymic nude mice, intestine; 3 µCi, 72 h, U-87 MG glioma xenograft).
The tissue uptake of `N=C(N)NCCC[C@@H]1NC(=O)[C@H](CC(=O)NC23CNCCNCC(N)(CNCCNC2)CNCCNC3)NC(=O)[C@@H](Cc2ccccc2)NC(=O)[C@H](CC(=O)O)NC(=O)CNC1=O` [copper-64 labelled] is reported as 1.59 ± 0.29 %ID/g (Nu/Nu mouse, male, tumour-bearing, lung; 10 µCi, 1 h).
The tissue uptake of `N=C(N)NCCC[C@@H]1NC(=O)[C@H](CCCCNC(=O)CCOCCOCCOCCOCCNC(=O)CC[C@H](NC(=O)CCOCCOCCOCCOCCNC(=O)CC[C@H](NC(=O)CN2CCN(CC(=O)O)CCN(CC(=O)O)CCN(CC(=O)O)CC2)C(=O)NCCOCCOCCOCCOCCC(=O)N[C@@H](CCC(=O)NCCOCCOCCOCCOCCC(=O)NCCCC[C@@H]2NC(=O)[C@@H](Cc3ccccc3)NC(=O)[C@H](CC(=O)O)NC(=O)CNC(=O)[C@H](CCCNC(=N)N)NC2=O)C(=O)NCCOCCOCCOCCOCCC(=O)NCCCC[C@@H]2NC(=O)[C@@H](Cc3ccccc3)NC(=O)[C@H](CC(=O)O)NC(=O)CNC(=O)[C@H](CCCNC(=N)N)NC2=O)C(=O)NCCOCCOCCOCCOCCC(=O)NCCCC[C@@H]2NC(=O)[C@@H](Cc3ccccc3)NC(=O)[C@H](CC(=O)O)NC(=O)CNC(=O)[C@H](CCCNC(=N)N)NC2=O)NC(=O)[C@@H](Cc2ccccc2)NC(=O)[C@H](CC(=O)O)NC(=O)CNC1=O` [indium-111 labelled] is reported as 0.12 ± 0.02 %ID/g (female athymic nude mice, blood; 3 µCi, 24 h, U-87 MG glioma xenograft).
`N=C(N)NCCC[C@@H]1NC(=O)[C@H](CCCCNC(=O)CNC(=O)CNC(=O)CNC(=O)CC[C@H](NC(=O)CNC(=O)CNC(=O)CNC(=O)[C@H](CCCCNC(=O)c2ccc(NN)nc2)NC(=O)c2ccc(NN)nc2)C(=O)NCC(=O)NCC(=O)NCC(=O)NCCCC[C@@H]2NC(=O)[C@@H](Cc3ccccc3)NC(=O)[C@H](CC(=O)O)NC(=O)CNC(=O)[C@H](CCCNC(=N)N)NC2=O)NC(=O)[C@@H](Cc2ccccc2)NC(=O)[C@H](CC(=O)O)NC(=O)CNC1=O` [technetium-99m labelled] gave a tissue uptake of 0.92 ± 0.19 %ID/g (female athymic nude mice, eyes; 0.1 MBq, 1 h, U-87 MG glioma xenograft).
For `CSCC[C@H](NC(=O)[C@H](CC(C)C)NC(=O)[C@H](Cc1c[nH]cn1)NC(=O)CNC(=O)[C@@H](NC(=O)[C@H](C)NC(=O)[C@H](Cc1c[nH]c2ccccc12)NC(=O)[C@H](CCC(N)=O)NC(=O)[C@H](CC(N)=O)NC(=O)CNC(=O)[C@H](Cc1ccc(O)cc1)NC(=O)[C@H](CCCNC(=N)N)NC(=O)[C@H](CCC(N)=O)NC(=O)[C@@H]1CCCN1C(=O)CN1CCN(CC(=O)O)CCN(CC(=O)O)CCN(CC(=O)O)CC1)C(C)C)C(N)=O` [indium-111 labelled], the tissue uptake was 0.6 ± 0.3 %ID/g (Swiss nu/nu mouse, male, PC-3 tumour xenograft, colon; 10 pmol, 24 h).
For `CSCC[C@H](NC(=O)[C@H](CC(C)C)NC(=O)[C@H](Cc1c[nH]cn1)NC(=O)CNC(=O)[C@@H](NC(=O)[C@H](C)NC(=O)[C@H](Cc1c[nH]c2ccccc12)NC(=O)[C@H](CCC(N)=O)NC(=O)CCCCCCCNC(=O)CCC(=O)Nc1ccc(CNC23CNCCNCC(N)(CNCCNC2)CNCCNC3)cc1)C(C)C)C(N)=O` [copper-64 labelled], the tissue uptake was 5.16 ± 0.284 %ID/g (female SCID mice, PC-3 xenograft, kidney; 0.6 MBq, 24 h).
For `CCCC[C@H](NC(=O)CCCCCCCNC(=O)c1ccc(NN)nc1)C(=O)N[C@H]1CC(=O)NCCCC[C@@H](C(N)=O)NC(=O)[C@H](Cc2c[nH]c3ccccc23)NC(=O)[C@H](CCCNC(=N)N)NC(=O)[C@@H](Cc2ccccc2)NC(=O)[C@H](Cc2c[nH]cn2)NC1=O` [technetium-99m labelled], the tissue uptake was 88.5 ± 2.23 %ID (C57 mouse, B16/F1 melanoma, urine; 0.037 MBq, 2 h).
The tissue uptake of `CSCC[C@H](NC(=O)[C@H](CC(C)C)NC(=O)[C@H](Cc1c[nH]cn1)NC(=O)CNC(=O)[C@@H](NC(=O)[C@H](C)NC(=O)[C@H](Cc1c[nH]c2ccccc12)NC(=O)[C@H](CCC(N)=O)NC(=O)CCCCCNC(=O)CNC(=O)CNC(=O)CNC(=O)CSC(C)=O)C(C)C)C(N)=O` [technetium-99m labelled] is reported as 0.29 ± 0.08 %ID/g (Swiss mouse, spleen; 18.5 MBq, 90 min).
The tissue uptake of `N=C(N)NCCC[C@@H]1NC(=O)[C@H](CCCCNC(=O)CNC(=O)CNC(=O)CNC(=O)CC[C@H](NC(=O)CNC(=O)CNC(=O)CNC(=O)c2ccc(NN=Cc3ccccc3S(=O)(=O)O)nc2)C(=O)NCC(=O)NCC(=O)NCC(=O)NCCCC[C@@H]2NC(=O)[C@@H](Cc3ccccc3)NC(=O)[C@H](CC(=O)O)NC(=O)CNC(=O)[C@H](CCCNC(=N)N)NC2=O)NC(=O)[C@@H](Cc2ccccc2)NC(=O)[C@H](CC(=O)O)NC(=O)CNC1=O` [technetium-99m labelled] is reported as 2.33 ± 0.61 %ID/g (athymic nu/nu mouse, female, MDA-MB-435 xenograft, muscle; 30 min).
The tissue uptake of `N=C(N)NCCC[C@@H]1NC(=O)[C@H](CCCCNC(=O)CC[C@H](NC(=O)CCOCCOCCOCCOCCNC(=O)CC[C@H](NC(=O)CN2CCN(CC(=O)O)CCN(CC(=O)O)CCN(CC(=O)O)CC2)C(=O)NCCOCCOCCOCCOCCC(=O)N[C@@H](CCC(=O)NCCCC[C@@H]2NC(=O)[C@@H](Cc3ccccc3)NC(=O)[C@H](CC(=O)O)NC(=O)CNC(=O)[C@H](CCCNC(=N)N)NC2=O)C(=O)NCCCC[C@@H]2NC(=O)[C@@H](Cc3ccccc3)NC(=O)[C@H](CC(=O)O)NC(=O)CNC(=O)[C@H](CCCNC(=N)N)NC2=O)C(=O)NCCCC[C@@H]2NC(=O)[C@@H](Cc3ccccc3)NC(=O)[C@H](CC(=O)O)NC(=O)CNC(=O)[C@H](CCCNC(=N)N)NC2=O)NC(=O)[C@@H](Cc2ccccc2)NC(=O)[C@H](CC(=O)O)NC(=O)CNC1=O` [indium-111 labelled] is reported as 3.19 ± 0.78 %ID/g (female athymic nude mice, lungs; 3 µCi, 0.5 h, U-87 MG glioma xenograft).

For quick reference, copied from above:
The tissue uptake of `N=C(N)NCCC[C@@H]1NC(=O)[C@H](CCCCNC(=O)CCOCCOCCOCCOCCNC(=O)CC[C@H](NC(=O)CCOCCOCCOCCOCCNC(=O)CC[C@H](NC(=O)CN2CCN(CC(=O)O)CCN(CC(=O)O)CCN(CC(=O)O)CC2)C(=O)NCCOCCOCCOCCOCCC(=O)N[C@@H](CCC(=O)NCCOCCOCCOCCOCCC(=O)NCCCC[C@@H]2NC(=O)[C@@H](Cc3ccccc3)NC(=O)[C@H](CC(=O)O)NC(=O)CNC(=O)[C@H](CCCNC(=N)N)NC2=O)C(=O)NCCOCCOCCOCCOCCC(=O)NCCCC[C@@H]2NC(=O)[C@@H](Cc3ccccc3)NC(=O)[C@H](CC(=O)O)NC(=O)CNC(=O)[C@H](CCCNC(=N)N)NC2=O)C(=O)NCCOCCOCCOCCOCCC(=O)NCCCC[C@@H]2NC(=O)[C@@H](Cc3ccccc3)NC(=O)[C@H](CC(=O)O)NC(=O)CNC(=O)[C@H](CCCNC(=N)N)NC2=O)NC(=O)[C@@H](Cc2ccccc2)NC(=O)[C@H](CC(=O)O)NC(=O)CNC1=O` [indium-111 labelled] is reported as 0.12 ± 0.02 %ID/g (female athymic nude mice, blood; 3 µCi, 24 h, U-87 MG glioma xenograft).
